Results of several laboratories.
A part holds a random share of what one study measured.
UniProt Q9UBE8, sequence (whole entry, looked up): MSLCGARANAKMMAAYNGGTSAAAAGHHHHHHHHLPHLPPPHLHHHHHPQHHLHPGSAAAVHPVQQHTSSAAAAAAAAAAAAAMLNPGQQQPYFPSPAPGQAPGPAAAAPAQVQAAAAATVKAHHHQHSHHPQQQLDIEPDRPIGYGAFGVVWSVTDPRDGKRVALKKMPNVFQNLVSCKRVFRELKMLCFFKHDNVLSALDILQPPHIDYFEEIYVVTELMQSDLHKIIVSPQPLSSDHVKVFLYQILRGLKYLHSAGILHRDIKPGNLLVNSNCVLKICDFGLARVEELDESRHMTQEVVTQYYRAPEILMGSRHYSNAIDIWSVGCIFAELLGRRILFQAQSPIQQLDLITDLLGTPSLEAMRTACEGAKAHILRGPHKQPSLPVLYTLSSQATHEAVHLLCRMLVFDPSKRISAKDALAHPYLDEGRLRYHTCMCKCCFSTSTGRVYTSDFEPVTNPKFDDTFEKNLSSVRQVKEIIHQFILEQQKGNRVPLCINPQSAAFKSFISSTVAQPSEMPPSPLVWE
UniProt P16591, sequence (whole entry, looked up): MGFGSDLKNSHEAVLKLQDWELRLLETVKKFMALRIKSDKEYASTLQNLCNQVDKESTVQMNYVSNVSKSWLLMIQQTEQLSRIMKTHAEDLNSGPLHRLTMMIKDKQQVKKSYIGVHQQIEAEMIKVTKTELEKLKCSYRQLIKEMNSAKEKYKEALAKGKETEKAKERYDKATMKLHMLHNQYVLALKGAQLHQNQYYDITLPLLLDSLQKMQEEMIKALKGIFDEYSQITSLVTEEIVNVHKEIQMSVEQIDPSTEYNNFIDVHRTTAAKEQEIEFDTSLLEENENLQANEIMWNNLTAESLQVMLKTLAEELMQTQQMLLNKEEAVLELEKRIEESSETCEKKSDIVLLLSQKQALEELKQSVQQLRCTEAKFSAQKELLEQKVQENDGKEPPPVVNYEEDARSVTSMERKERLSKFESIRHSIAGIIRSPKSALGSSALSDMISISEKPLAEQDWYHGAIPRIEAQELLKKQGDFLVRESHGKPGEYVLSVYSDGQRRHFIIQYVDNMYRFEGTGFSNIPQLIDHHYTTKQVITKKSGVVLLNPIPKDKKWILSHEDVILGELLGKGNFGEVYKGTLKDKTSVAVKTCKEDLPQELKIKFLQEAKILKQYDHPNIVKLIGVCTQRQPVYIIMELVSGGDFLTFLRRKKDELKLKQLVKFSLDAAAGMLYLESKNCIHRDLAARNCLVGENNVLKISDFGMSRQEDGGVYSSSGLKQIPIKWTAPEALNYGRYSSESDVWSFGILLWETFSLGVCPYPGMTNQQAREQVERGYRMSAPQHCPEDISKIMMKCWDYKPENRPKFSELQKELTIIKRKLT
UniProt Q00526, sequence (whole entry, looked up): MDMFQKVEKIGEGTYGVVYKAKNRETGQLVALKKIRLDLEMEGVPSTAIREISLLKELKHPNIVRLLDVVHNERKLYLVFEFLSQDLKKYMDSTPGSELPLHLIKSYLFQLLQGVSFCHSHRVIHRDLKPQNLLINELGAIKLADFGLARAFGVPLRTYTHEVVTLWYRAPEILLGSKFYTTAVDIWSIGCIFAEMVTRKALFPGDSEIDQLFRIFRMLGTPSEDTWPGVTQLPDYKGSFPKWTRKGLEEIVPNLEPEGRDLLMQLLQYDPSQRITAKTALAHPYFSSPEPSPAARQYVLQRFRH
UniProt P51817, sequence (whole entry, looked up): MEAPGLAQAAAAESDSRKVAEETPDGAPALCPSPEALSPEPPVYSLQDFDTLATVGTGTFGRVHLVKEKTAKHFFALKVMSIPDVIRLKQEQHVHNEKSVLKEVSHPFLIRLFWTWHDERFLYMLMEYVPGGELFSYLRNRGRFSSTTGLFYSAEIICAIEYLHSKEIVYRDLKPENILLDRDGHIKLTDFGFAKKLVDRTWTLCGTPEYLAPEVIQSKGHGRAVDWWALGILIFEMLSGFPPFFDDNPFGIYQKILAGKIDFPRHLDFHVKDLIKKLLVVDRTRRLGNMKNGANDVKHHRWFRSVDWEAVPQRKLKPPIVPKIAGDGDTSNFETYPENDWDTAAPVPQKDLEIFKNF

Study 1
Target: DNA polymerase theta, ATPase domain (POLQ, Homo sapiens, UniProt O75417)
UniProt O75417, sequence (whole entry, unmodified, looked up): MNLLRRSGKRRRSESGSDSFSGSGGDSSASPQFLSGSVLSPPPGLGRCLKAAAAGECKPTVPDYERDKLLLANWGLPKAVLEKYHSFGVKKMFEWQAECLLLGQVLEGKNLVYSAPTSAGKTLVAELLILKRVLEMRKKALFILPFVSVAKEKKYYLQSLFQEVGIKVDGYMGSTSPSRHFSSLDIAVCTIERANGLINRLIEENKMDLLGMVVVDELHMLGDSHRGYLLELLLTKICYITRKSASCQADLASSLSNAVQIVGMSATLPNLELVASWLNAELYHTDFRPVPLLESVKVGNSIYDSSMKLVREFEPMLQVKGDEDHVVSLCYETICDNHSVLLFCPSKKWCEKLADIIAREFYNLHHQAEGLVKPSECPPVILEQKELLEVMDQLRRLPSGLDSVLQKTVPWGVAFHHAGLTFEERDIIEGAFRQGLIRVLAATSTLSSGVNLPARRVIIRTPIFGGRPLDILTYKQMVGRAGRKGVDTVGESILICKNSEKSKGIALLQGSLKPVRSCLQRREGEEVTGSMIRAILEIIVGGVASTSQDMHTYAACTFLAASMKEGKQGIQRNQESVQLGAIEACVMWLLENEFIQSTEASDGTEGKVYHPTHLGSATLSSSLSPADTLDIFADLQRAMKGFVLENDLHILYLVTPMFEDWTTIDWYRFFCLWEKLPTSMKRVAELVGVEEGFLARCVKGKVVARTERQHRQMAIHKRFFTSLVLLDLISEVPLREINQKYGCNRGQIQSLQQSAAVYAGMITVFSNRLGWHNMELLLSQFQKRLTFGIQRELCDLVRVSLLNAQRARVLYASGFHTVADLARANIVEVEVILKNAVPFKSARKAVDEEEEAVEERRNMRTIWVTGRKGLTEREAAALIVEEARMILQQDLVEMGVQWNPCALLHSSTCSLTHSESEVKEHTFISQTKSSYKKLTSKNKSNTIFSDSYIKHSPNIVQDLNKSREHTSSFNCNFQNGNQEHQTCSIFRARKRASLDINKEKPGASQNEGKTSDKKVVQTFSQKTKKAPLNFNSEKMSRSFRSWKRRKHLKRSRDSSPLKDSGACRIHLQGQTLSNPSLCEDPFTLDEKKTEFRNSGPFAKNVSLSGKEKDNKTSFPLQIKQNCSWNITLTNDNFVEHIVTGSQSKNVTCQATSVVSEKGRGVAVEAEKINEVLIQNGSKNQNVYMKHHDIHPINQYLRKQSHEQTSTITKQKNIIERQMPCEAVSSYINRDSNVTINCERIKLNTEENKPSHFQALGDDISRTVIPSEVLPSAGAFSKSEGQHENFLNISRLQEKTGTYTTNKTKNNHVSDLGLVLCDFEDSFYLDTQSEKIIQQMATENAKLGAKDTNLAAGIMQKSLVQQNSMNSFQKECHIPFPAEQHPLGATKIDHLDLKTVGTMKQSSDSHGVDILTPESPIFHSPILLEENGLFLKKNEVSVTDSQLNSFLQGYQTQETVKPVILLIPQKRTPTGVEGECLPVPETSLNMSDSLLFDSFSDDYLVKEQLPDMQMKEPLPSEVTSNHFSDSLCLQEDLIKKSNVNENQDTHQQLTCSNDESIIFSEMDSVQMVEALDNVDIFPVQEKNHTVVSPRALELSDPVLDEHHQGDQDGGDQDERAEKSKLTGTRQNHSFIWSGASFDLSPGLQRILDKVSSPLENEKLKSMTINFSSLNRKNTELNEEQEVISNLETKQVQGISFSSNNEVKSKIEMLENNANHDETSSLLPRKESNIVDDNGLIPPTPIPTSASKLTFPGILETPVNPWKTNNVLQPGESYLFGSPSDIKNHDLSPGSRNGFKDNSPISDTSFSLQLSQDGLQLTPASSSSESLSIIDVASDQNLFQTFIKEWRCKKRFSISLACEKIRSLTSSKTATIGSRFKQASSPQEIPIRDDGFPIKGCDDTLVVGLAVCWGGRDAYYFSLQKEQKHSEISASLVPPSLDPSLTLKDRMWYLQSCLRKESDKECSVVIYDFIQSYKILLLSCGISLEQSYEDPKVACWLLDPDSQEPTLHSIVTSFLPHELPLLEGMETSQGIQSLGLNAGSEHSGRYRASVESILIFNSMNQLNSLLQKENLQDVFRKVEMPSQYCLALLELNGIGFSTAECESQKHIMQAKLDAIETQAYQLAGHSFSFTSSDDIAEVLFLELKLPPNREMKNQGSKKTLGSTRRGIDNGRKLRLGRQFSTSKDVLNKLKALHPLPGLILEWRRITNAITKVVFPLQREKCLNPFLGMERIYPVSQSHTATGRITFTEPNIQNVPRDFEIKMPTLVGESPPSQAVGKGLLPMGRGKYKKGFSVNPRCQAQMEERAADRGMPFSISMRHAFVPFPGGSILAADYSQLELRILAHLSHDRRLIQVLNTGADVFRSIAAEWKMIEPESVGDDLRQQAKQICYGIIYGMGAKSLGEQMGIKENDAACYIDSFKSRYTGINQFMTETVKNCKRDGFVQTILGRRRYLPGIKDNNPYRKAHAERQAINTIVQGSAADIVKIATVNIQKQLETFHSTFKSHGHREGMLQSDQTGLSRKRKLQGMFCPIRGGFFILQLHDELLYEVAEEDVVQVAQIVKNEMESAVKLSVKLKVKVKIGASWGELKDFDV
Effect on: enzyme activity
Action: inhibitor
Concentration: 77 µM
Reference: untreated
| Structure (SMILES) | remaining activity [%] |
| --- | --- |
| c1ccc2nc(N3CCNCC3)ccc2c1 | 104 |
| CN1[C@@H]2CC[C@H]1CC(O)C2 (stereo partly shown) | 102 |
| CC(=O)[C@H]1CC[C@H]2[C@@H]3CC[C@H]4C[C@](C)(O)CC[C@]4(C)[C@H]3CC[C@]12C | 103 |
| CCCN1CCC[C@@H](c2cccc(O)c2)C1 | 99.2 |
| CC(C)N(CCNC(=O)CN1CCCC1=O)C(C)C | 94.8 |
| C=C(C)[C@@H]1[C@H]2OC(=O)[C@@H]1[C@]1(O)C[C@H]3O[C@]34C(=O)O[C@H]2[C@]14C | 106 |
| CCN1C[C@]2(COC)CC[C@H](O)[C@]34C1[C@@](O)([C@@H](OC)[C@H]23)[C@@]1(O)C[C@H](OC)[C@H]2C[C@@H]4[C@@H]1[C@H]2OC | 100 |

Study 2
SMILES: COC[C@H]1OC(=O)c2coc3c2[C@@]1(C)C1=C(C3=O)[C@@H]2CCC(=O)[C@@]2(C)C[C@H]1OC(C)=O
Effect on: enzyme activity
Action: inhibitor
Concentration: 0.5 µM
Reference: control
| target | remaining activity [%] |
| --- | --- |
| CDC42BPA (Homo sapiens, UniProt Q5VT25) | 89.2 |
| STK25 (Homo sapiens, UniProt O00506) | 90.3 |
| NLK (Homo sapiens, UniProt Q9UBE8) | 93.8 |
| FER (Homo sapiens, UniProt P16591) | 81.7 |
| ITK (Homo sapiens, UniProt Q08881) | 90 |
| SRC (Homo sapiens, UniProt P12931) | 99.5 |
| HIPK1 (Homo sapiens, UniProt Q86Z02) | 108 |
| MARK3 (Homo sapiens, UniProt P27448) | 112 |
| LIM domain kinase 1 (LIMK1, Homo sapiens, UniProt P53667) | 86.7 |
| FGR (Homo sapiens, UniProt P09769) | 87.9 |
| FYN (Homo sapiens, UniProt P06241) | 92.3 |
| FLT4 (Homo sapiens, UniProt P35916) | 113 |
| TAOK3 (Homo sapiens, UniProt Q9H2K8) | 96.9 |
| PRKX (Homo sapiens, UniProt P51817) | 91.7 |
| ALK (Homo sapiens, UniProt Q9UM73) | 103 |
| Insulin receptor (INSR, Homo sapiens, UniProt P06213) | 87.7 |
| PKN1 (Homo sapiens, UniProt Q16512) | 94.2 |
| MATK (Homo sapiens, UniProt P42679) | 98.8 |
| PASK (Homo sapiens, UniProt Q96RG2) | 87.9 |
| NEK11 (Homo sapiens, UniProt Q8NG66) | 95.1 |
| Cyclin-dependent kinase 3, with cyclin E (CDK3, Homo sapiens, UniProt Q00526) | 95.2 |
| AKT1 (Homo sapiens, UniProt P31749) | 95.4 |

Study 3
Cell line: HaCaT
Concentration: 100 µM
Time: 36 h
| SMILES | viability [%] |
| --- | --- |
| C=CC[C@]1(O)CC[C@H]2[C@@H]3CCC4=CCCC[C@@H]4[C@H]3CC[C@@]21C | 7.24 |
| CC(C)(C)NCC(O)c1ccccc1Cl (stereo not shown) | 70.1 |
| C#C[C@]1(O)CC[C@H]2[C@@H]3CCC4=CC(=O)CC[C@]4(C)[C@H]3CC[C@@]21C | 61.7 |
| c1ccc(NNc2ccccc2)cc1 | 62.9 |
| CCNCC(O)c1cccc(O)c1 (stereo not shown) | 88.6 |
| CCOC(=O)CC(SP(=S)(OC)OC)C(=O)OCC (stereo not shown) | 40.6 |

Study 4
Structure (SMILES): CNC(=O)c1ccc(-c2cnn3ccc(C(=O)N(C)c4ccc(Cl)c(C(=O)OC)c4)cc23)cc1
Host: female IFN-γ knockout C57BL/6 mice
Medium: plasma
Route: oral
Dose: 10 mg/kg
| conditions | mean plasma concentration [nM] |
| --- | --- |
| 0.25 h | 0.822 |
| 3 h | 1.99 |
| 1 h | 8.4 |
| 7 h | 0.612 |
| 0.5 h | 2.94 |

Study 5
Target: Calcium/calmodulin-dependent protein kinase type II subunit alpha (CAMK2A, Homo sapiens, UniProt Q9UQM7)
UniProt Q9UQM7, sequence (whole entry, looked up): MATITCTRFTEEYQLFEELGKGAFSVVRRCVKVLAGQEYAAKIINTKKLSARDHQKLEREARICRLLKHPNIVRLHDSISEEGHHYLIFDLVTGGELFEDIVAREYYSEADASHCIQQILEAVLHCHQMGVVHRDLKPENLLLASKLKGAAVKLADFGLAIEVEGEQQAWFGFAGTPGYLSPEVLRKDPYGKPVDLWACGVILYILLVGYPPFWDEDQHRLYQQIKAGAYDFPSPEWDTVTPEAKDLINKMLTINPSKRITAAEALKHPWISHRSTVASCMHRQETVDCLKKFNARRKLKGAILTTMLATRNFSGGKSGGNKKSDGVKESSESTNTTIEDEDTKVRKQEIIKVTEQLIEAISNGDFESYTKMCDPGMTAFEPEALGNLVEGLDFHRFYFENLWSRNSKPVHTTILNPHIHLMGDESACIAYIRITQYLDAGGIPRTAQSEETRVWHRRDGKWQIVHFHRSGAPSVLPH
Effect on: enzyme activity
Action: inhibitor
Concentration: 10 µM
| Structure (SMILES) | inhibition |
| --- | --- |
| CCN1C[C@]2(COC)CC[C@H](OC)[C@]34C1C([C@H](OC)[C@H]23)[C@]1(OC(C)=O)[C@H]2[C@@H](OC(=O)c3ccccc3)[C@](O)(C[C@H]24)[C@@H](OC)[C@@H]1O | 9% |
| NCCP(=O)(O)O | -21% |
| COc1ccc(-c2cc(=O)c3c(OC)c(OC)c(OC)cc3o2)cc1 | -13% |
| C=C1[C@@H]2CC[C@H]3[C@]4(C)C[C@H](O[C@H]5O[C@H](CO)[C@@H](OS(=O)(=O)O)[C@H](OS(=O)(=O)O)[C@H]5OC(=O)CC(C)C)C[C@@H](C(=O)O)[C@H]4CC[C@]3(C2)[C@H]1O | -12% |
| CC(=O)/C=C/c1ccccc1 | -86% |
| CO[C@H]1[C@H](O)[C@H](O[C@H]2CC[C@@]3(C)[C@H](CC[C@@H]4[C@@H]3CC[C@]3(C)[C@@H](C5=CC(=O)OC5)CC[C@]43O)C2)O[C@@H](C)[C@@H]1O | 32% |
